Results gathered from unrelated publications.
Every numbered part comes from another study and shows a few of its results, in no order. Substitutions count along the parent as printed.

Sample 1 — method: protein-binding microarray; molecule type: double-stranded DNA, one strand shown; sample: in vitro; tested at: 2200 nM top; notes: 60-bp whole probe; together with: salmon DNA 0.4 mg/ml; relative to: random background probes; reading: higher = stronger binding; quantity: fitted relative affinity; all sequences stand within: GCCTAGCAC … GTCTTGATTCGCTTGACGCTGCTG
Target: Interferon regulatory factor 7, full length, phosphomimetic (IRF7, Homo sapiens, UniProt Q92985, residues 1-503, S471D/S472D/S475D/S476D/S477D/S483D/S484D/S487D)
Residues (chain): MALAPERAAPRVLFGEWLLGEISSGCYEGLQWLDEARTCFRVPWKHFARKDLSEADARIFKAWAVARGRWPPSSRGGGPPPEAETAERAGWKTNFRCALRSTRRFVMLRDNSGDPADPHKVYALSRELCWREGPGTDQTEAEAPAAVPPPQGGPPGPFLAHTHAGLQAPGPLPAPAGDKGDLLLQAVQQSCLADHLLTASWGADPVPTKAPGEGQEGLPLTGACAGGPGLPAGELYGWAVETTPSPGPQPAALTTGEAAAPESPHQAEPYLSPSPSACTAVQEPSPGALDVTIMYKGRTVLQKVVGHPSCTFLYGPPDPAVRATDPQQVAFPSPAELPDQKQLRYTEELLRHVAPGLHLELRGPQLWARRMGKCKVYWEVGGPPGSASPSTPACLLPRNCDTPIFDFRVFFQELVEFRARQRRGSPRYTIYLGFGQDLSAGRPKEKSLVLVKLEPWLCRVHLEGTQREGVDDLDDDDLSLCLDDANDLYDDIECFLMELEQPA
GGGCATTTAGAAAATGGAAATGTGCTA: -0.955 z-score
TCATCTTCCCCTCTCATACTGTGCTAG: 2.47 z-score
TCATGTTTATGTCTGGGACTGTGCTAG: 1.15 z-score
GACGGTCTTCTTTTCCTGACGTGCTAG: 1.23 z-score
TTAGATATCGGGTCTGGATTAGTGCTA: 0.0395 z-score
CTTACTTTATGTAGGAAGTCGTGCTAG: 0.458 z-score
TCATCTCTACATGTGTTACTGTGCTAG: 1.6 z-score
TCAATTTTCTTTAACTCACTGTGCTAG: 0.883 z-score
TTAGATATCAGTATCAATTAGTGCTAG: 0.24 z-score
TTTCAGCTGTTTTTCTCACCGTGCTAG: 2.63 z-score
CACTCTCTGCTTGTGTCTGGGTGCTAG: 1.71 z-score
GACGGACTTCTTCTCCTGACGTGCTAG: 0.541 z-score
TCATGTATATCTTCAGCACTGTGCTAG: 0.78 z-score
CTCCCTTTCTCTCTGTGACAGTGCTAG: 3.33 z-score
GACGGACTGGGTTTCTGGACGTGCTAG: -0.0292 z-score
GTCGGACTGCTACTGCTGACGTGCTAG: 0.143 z-score
TCAACTTTCAGTTCTCCACTGTGCTAG: 7.34 z-score
ACCGTTGTAGTTTTCATTATGTGCTAG: 2.07 z-score
TTACGACTGGGTCTCGGTTAGTGCTAG: 0.825 z-score

Sample 2 — target: CCNF, cyclin fold, Cln2 fusion (human); method: yeast growth competition, sequencing; sample: yeast; notes: strong parent motif; relative to: not given; reading: higher = stronger binding; quantity: normalised enrichment score
Starting sequence: CDC25A docking peptide (human); PPHRRRLLFACSP
PPHRRRLLFAQSP [C11Q]: 8.12
PWHRRRLLFACSP [P2W]: 5.3
PPHRRRLLFACTP [S12T]: 7.04
PPHRRYLLFACSP [R6Y]: 1.78
PPHRRRLLKACSP [F9K]: 0.996
PPHRRRLLFACFP [S12F]: 6.42
PPHRRRLLFDCSP [A10D]: 8.96
PPHRRRLLFACIP [S12I]: 7.28
PPHRRRLQFACSP [L8Q]: 6.44
PTHRRRLLFACSP [P2T]: 7.66
PPHRRRLLFRCSP [A10R]: 6.74
PPIRRRLLFACSP [H3I]: 8.48
PPHRLRLLFACSP [R5L]: 2.48
PPHRRRLLFACSN [P13N]: 8.04
PPYRRRLLFACSP [H3Y]: 8.49
PPHRRRLLFWCSP [A10W]: 7.31
PPHSRRLLFACSP [R4S]: 3.94
PPHRRRLLFAISP [C11I]: 7.75
PPHRRRLLFACYP [S12Y]: 7.87
NPHRRRLLFACSP [P1N]: 6.82
PPHRRRLLFACEP [S12E]: 8.31
PPHRRILLFACSP [R6I]: 4.09
PPHRFRLLFACSP [R5F]: 2.46
PPHRRRLLFADSP [C11D]: 7.92
PPHRRRLLLACSP [F9L]: 3.8

Sample 3 — method: RNA Bind-n-Seq; molecule type: RNA; sample: in vitro; tested at: not given; relative to: input RNA pool; reading: higher = stronger binding; quantity: bound/input enrichment
Target: RING finger protein unkempt homolog, zinc fingers 1-6, GST-SBP tag (UNK, Homo sapiens, UniProt Q9C0B0, residues 30-357)
Notes: RNA with constant flanks, human and mouse sites, ends assumed
All sequences stand within: GGGAGUUCUACAGUCCGACGAUC … CAACAGAGGAUUGAGCAUCA
Construct (chain): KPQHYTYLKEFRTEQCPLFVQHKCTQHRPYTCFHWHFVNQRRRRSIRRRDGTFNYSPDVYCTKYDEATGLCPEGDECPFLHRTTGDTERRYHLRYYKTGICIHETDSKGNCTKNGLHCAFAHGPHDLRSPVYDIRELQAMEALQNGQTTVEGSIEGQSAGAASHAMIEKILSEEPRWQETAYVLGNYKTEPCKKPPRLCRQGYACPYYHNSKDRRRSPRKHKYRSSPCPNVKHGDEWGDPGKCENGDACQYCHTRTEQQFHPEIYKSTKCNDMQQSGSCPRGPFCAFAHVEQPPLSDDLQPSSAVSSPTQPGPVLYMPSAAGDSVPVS
AAACUCAUCCUUAAAGGGGUCAUACUGCUGAUUGUGGACAAAGCCCUAGAAGAGCCAAAGUAUAGCUCACUGUAUGCUCAGCUAUGUCUGCGAUUGGCAGAAGAUGCACCAAACUUUGAU: 0.147 ratio
GUUCUGGCUGAUAGAUUGUCGACAGAUCCAGGAAUCCGUUACUUUUGCAUCACAAGUAUACAGAGAAAUUAUCUGCGUACCUUAUAUGGCCAAAUUUGUAGUGUUUGCCAAAUCACAUGA: 0.187 ratio
AGCUCCCCGUAUUUCCGGGACCAUUCAGCACUGAGCACUAUGAGUGGCUUGUCGAUCUCUGUGAUUAAGAACCCCAGCGUGUUUGAGCAGUUGCUCUCCUUCUGUUACACUGGAAGGAUG: 0.0553 ratio
GGCUCCAGGAGCUGUCCUUGAACUUGGAGAAGGAUUUGGGUAAGAAUGCCAGUCCUAGAGUUAGUAGCACGAGGCUUUGUGCCUUGCCCCCAUUGAUGUCUGAUAUUGCUGCAAUCCAGG: 1.32 ratio
GGGACACAUACUGUAGUAUACUAGUGGGUGGGAGGCAUGGGGGUUAAGAUUGUAUAAACCAUAGAUCCUGUGUAAGUUAGAGUUGUUGCUUACAUUUCAUAUAGAGUCUCACUAUUCAUA: 3.08 ratio
ACAAAAAUCAAGAAAAUGUUUCUCACCUCUCAGUUUCUUCUGCUUCACCAACAUCGUCCGUAGCAUCAGCUGCAGGAAGUGUAACAAGCUCUAGUCUUCAGAAAUCUCCUACGCUGCUCA: 0.271 ratio
GUUGUGUUUUGUUUUUGUUUCCUUUUGUUUAUGUUUUGGCCUUUCCUCUUUGUCUUUCCAUGUAGACCAGAUAUUUGAAAGGGCAGACGAUGGCUAGAGGUGUAAUGUGCAGCUUGUUUA: 0.565 ratio
AAAGAGCAUUUACAAAUAAAGCAAAUUUGCUUUAUUUUUUAAAACUUUUUUAAAAAAUGCAAUUUCCUUAAUUACAUUAAAAAUUUAACUAUAAAAUUUGGUAACCACAUUGUUUUUCUU: 2.13 ratio

Sample 4 — method: protein binding microarray; molecule type: double-stranded DNA, one strand shown; sample: in vitro; tested at: not given; relative to: not given; reading: higher = stronger binding; quantity: E-score
Target: Histone acetyltransferase KAT6A, winged helix 1, GST fusion (KAT6A, Homo sapiens, UniProt Q92794, residues 1-85)
Notes: 8-mer, flanks averaged, mean of 2 arrays, mostly near background
Residues (chain): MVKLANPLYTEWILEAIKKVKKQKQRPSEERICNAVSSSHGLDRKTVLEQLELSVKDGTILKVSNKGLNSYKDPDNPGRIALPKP
ATGACTTG: -0.0462
CGCCGTAA: 0.456
ATAAACCG: 0.104
AAGTTTTA: -0.0973
CTGAGATA: -0.219
CCTCTGTA: -0.0257
GAGAGCTA: -0.0664
GACGATTA: 0.0641
GCTCGCAC: 0.198
AGATGGCA: -0.176
GACAGCTC: -0.0935
TCCCCCCA: -0.208
AGCGACCA: -0.0992
GAGTAATA: 0.0145
CTAAGATA: -0.146
ACTCGGCC: 0.201
CCAATACA: -0.0552
CTACTCAG: -0.144
TAAGAGGA: -0.192
CCTCCCCA: -0.0647
GCATGGAC: 0.00411
ACTAATCT: -0.11
CGCATTAA: 0.155

For quick reference, copied from above (sample 4):
AGCGACCA: -0.0992
GAGTAATA: 0.0145
CTAAGATA: -0.146
ACTCGGCC: 0.201
CCAATACA: -0.0552
CTACTCAG: -0.144
TAAGAGGA: -0.192
CCTCCCCA: -0.0647
GCATGGAC: 0.00411
